Measurements of several laboratories.
Each line is one published result; not all experiments were run side by side.
Organism: Escherichia coli

The survival of `C[C@@](O)(C(F)F)[C@H](NC(=O)c1ccc(C#CC#CC2CC2)cc1)C(=O)NO` is reported as 90% (NDM-1, infected animal; 10 mg/kg every 12 h).
With `CCCC(=O)NCC(=O)N[C@@H](CC(C)C)C(=O)N[C@@H](CC(C)C)C(=O)N[C@@H](CCCCN)C(=O)N[C@@H](CCCNC(=N)N)C(=O)N[C@H](C(=O)N[C@@H](CCCCN)C(=O)N[C@H](C(=O)N[C@@H](CC(C)C)C(=O)N[C@@H](CC(C)C)C(=O)NCCCC[C@H](NC(=O)[C@H](CC(C)C)NC(=O)[C@H](CC(C)C)NC(=O)[C@@H](NC(=O)[C@H](CCCCN)NC(=O)[C@@H](NC(=O)[C@H](CCCNC(=N)N)NC(=O)[C@H](CCCCN)NC(=O)[C@H](CC(C)C)NC(=O)[C@H](CC(C)C)NC(=O)CNC(=O)CCC)[C@@H](C)CC)[C@@H](C)O)C(=O)NCCCC[C@H](NC(=O)[C@H](CCCCNC(=O)[C@H](CC(C)C)NC(=O)[C@H](CC(C)C)NC(=O)[C@@H](NC(=O)[C@H](CCCCN)NC(=O)[C@@H](NC(=O)[C@H](CCCNC(=N)N)NC(=O)[C@H](CCCCN)NC(=O)[C@H](CC(C)C)NC(=O)[C@H](CC(C)C)NC(=O)CNC(=O)CCC)[C@@H](C)CC)[C@@H](C)O)NC(=O)[C@H](CC(C)C)NC(=O)[C@H](CC(C)C)NC(=O)[C@@H](NC(=O)[C@H](CCCCN)NC(=O)[C@@H](NC(=O)[C@H](CCCNC(=N)N)NC(=O)[C@H](CCCCN)NC(=O)[C@H](CC(C)C)NC(=O)[C@H](CC(C)C)NC(=O)CNC(=O)CCC)[C@@H](C)CC)[C@@H](C)O)C(N)=O)[C@@H](C)O)[C@@H](C)CC` the FIC index was 0.125 (checkerboard; ATCC 25922; added: rifampicin).
`O=C(O)[C@@H]1Cc2c([nH]c3ccccc23)[C@@H](c2ccc(F)cc2I)N1` gave a growth inhibition of 0% (BL21(DE3); 250 µM, 18 h).
`CC[C@H](C)[C@H](NC(=O)[C@H](CO)NC(=O)[C@H](CO)NC(=O)[C@H](Cc1ccccc1)NC(=O)CN)C(=O)N[C@@H](Cc1ccccc1)C(=O)N[C@@H](CCCNC(=N)N)C(=O)NCC(=O)N[C@H](C(=O)N[C@@H](C)C(=O)N[C@@H](CCCCN)C(=O)N[C@@H](Cc1ccccc1)C(=O)N[C@@H](C)C(=O)N[C@@H](CO)C(=O)N[C@@H](CCCCN)C(=O)NCC(=O)N[C@@H](CC(C)C)C(=O)NCC(=O)N[C@@H](CCCCN)C(N)=O)C(C)C` has an MBC of greater than 128 µM (ATCC 8739; pretreated trypsin 0.5 mg/mL).
For `CCCCCC(=O)NCC(=O)N[C@@H](CC(C)C)C(=O)N[C@@H](CC(C)C)C(=O)N[C@@H](CCCCN)C(=O)N[C@@H](CCCNC(=N)N)C(=O)N[C@H](C(=O)N[C@@H](CCCCN)C(=O)N[C@H](C(=O)N[C@@H](CC(C)C)C(=O)N[C@@H](CC(C)C)C(=O)NCCCC[C@H](NC(=O)[C@H](CC(C)C)NC(=O)[C@H](CC(C)C)NC(=O)[C@@H](NC(=O)[C@H](CCCCN)NC(=O)[C@@H](NC(=O)[C@H](CCCNC(=N)N)NC(=O)[C@H](CCCCN)NC(=O)[C@H](CC(C)C)NC(=O)[C@H](CC(C)C)NC(=O)CNC(=O)CCCCC)[C@@H](C)CC)[C@@H](C)O)C(N)=O)[C@@H](C)O)[C@@H](C)CC`, the FIC index was 0.375 (checkerboard; ATCC 25922; added: gentamicin).
`CC[C@H](C)[C@H](NC(=O)[C@H](CCCCN)NC(=O)[C@H](CCCCN)NC(=O)[C@H](CC(C)C)NC(=O)[C@H](CCCCN)NC(=O)[C@H](CCC(=O)O)NC(=O)[C@H](CCCCN)NC(=O)[C@@H](NC(=O)[C@H](CCCCN)NC(=O)[C@H](CC(N)=O)NC(=O)[C@H](CCCNC(=N)N)NC(=O)[C@H](Cc1ccccc1)NC(=O)[C@H](CCCCN)NC(=O)[C@H](CCCNC(=N)N)NC(=O)[C@H](CC(C)C)NC(=O)[C@H](CCCNC(=N)N)NC(=O)[C@H](CCCCN)NC(=O)[C@H](CCCNC(=N)N)NC(=O)[C@H](CC(C)C)NC(=O)[C@@H](N)CC(C)C)[C@@H](C)CC)C(=O)NCC(=O)N[C@@H](CCC(N)=O)C(=O)N[C@@H](CCCCN)C(=O)N[C@H](C(=O)N[C@@H](CCC(N)=O)C(=O)NCC(=O)N[C@@H](Cc1ccccc1)C(=O)N[C@H](C(=O)N1CCC[C@H]1C(=O)N[C@@H](CCCCN)C(=O)N[C@@H](CC(C)C)C(=O)N[C@H](C(=O)N1CCC[C@H]1C(=O)N[C@@H](CCCNC(=N)N)C(=O)N[C@H](C(=O)N[C@@H](CCC(=O)O)C(=O)N[C@@H](CO)C(=O)O)[C@@H](C)O)C(C)C)C(C)C)[C@@H](C)CC` gave a lethal concentration of 2.67 µM (inhibition zone; D. J45b).
For `CC(C)=CCCC1(C)CC=NO1` (stereo not drawn), the IC50 was greater than 500 µM (K12).
`CC[C@H](C)[C@H](NC(=O)[C@H](CCCCN)NC(=O)[C@H](CCCCN)NC(=O)[C@H](CC(C)C)NC(=O)[C@H](CCCCN)NC(=O)[C@H](CCC(=O)O)NC(=O)[C@H](CCCCN)NC(=O)[C@@H](NC(=O)[C@H](CCCCN)NC(=O)[C@H](CC(N)=O)NC(=O)[C@H](CCCNC(=N)N)NC(=O)[C@H](Cc1ccccc1)NC(=O)[C@H](CCCCN)NC(=O)[C@H](CCCNC(=N)N)NC(=O)[C@H](CC(C)C)NC(=O)[C@H](CCCNC(=N)N)NC(=O)[C@H](CCCCN)NC(=O)[C@H](CCCNC(=N)N)NC(=O)[C@H](CC(C)C)NC(=O)CN)[C@@H](C)CC)C(=O)NCC(=O)N[C@@H](CCC(N)=O)C(=O)N[C@@H](CCCCN)C(=O)N[C@H](C(=O)N[C@@H](CCC(N)=O)C(=O)NCC(=O)N[C@@H](Cc1ccccc1)C(=O)N[C@H](C(=O)N1CCC[C@H]1C(=O)N[C@@H](CCCCN)C(=O)N[C@@H](CC(C)C)C(=O)N[C@@H](C)C(=O)N1CCC[C@H]1C(=O)N[C@@H](CCCNC(=N)N)C(=O)N[C@H](C(=O)N[C@@H](CC(=O)O)C(=O)N[C@@H](Cc1ccc(O)cc1)C(=O)O)[C@@H](C)O)C(C)C)[C@@H](C)CC` gave a lethal concentration of 1.52 µM (inhibition zone; JM109).
`CC[C@H](C)[C@H](NC(=O)[C@H](CCCNC(=N)N)NC(=O)[C@H](CCCCN)NC(=O)[C@H](CC(C)C)NC(=O)[C@H](CC(C)C)NC(=O)CN)C(=O)N[C@@H](CCCCN)C(=O)N[C@H](C(=O)N[C@@H](CC(C)C)C(=O)N[C@@H](CC(C)C)C(=O)NCCCC[C@H](NC(=O)[C@H](CC(C)C)NC(=O)[C@H](CC(C)C)NC(=O)[C@@H](NC(=O)[C@H](CCCCN)NC(=O)[C@@H](NC(=O)[C@H](CCCNC(=N)N)NC(=O)[C@H](CCCCN)NC(=O)[C@H](CC(C)C)NC(=O)[C@H](CC(C)C)NC(=O)CN)[C@@H](C)CC)[C@@H](C)O)C(=O)NCCCC[C@H](NC(=O)[C@H](CCCCNC(=O)[C@H](CC(C)C)NC(=O)[C@H](CC(C)C)NC(=O)[C@@H](NC(=O)[C@H](CCCCN)NC(=O)[C@@H](NC(=O)[C@H](CCCNC(=N)N)NC(=O)[C@H](CCCCN)NC(=O)[C@H](CC(C)C)NC(=O)[C@H](CC(C)C)NC(=O)CN)[C@@H](C)CC)[C@@H](C)O)NC(=O)[C@H](CC(C)C)NC(=O)[C@H](CC(C)C)NC(=O)[C@@H](NC(=O)[C@H](CCCCN)NC(=O)[C@@H](NC(=O)[C@H](CCCNC(=N)N)NC(=O)[C@H](CCCCN)NC(=O)[C@H](CC(C)C)NC(=O)[C@H](CC(C)C)NC(=O)CN)[C@@H](C)CC)[C@@H](C)O)C(N)=O)[C@@H](C)O` has an FIC index of 0.25 (checkerboard; ATCC 25922; added: rifampicin).
The MBC of `CCCCCCCCCCCCCC(=O)N[C@@H](CCCCN)C(=O)N[C@@H](CCCCN)C(=O)N[C@@H](CCCCN)C(=O)N[C@@H](CCCCN)C(N)=O` is reported as 128 µg/mL (K12).
`CC[C@H](C)[C@H](NC(=O)[C@H](CCCN)NC(=O)[C@H](CC(N)=O)NC(=O)[C@H](Cc1c[nH]c2ccccc12)NC(=O)[C@H](Cc1ccccc1)NC(=O)[C@H](CCCN)NC(=O)[C@H](CCCCNC(=N)N)NC(=O)[C@H](CC(C)C)NC(=O)[C@H](Cc1c[nH]c2ccccc12)NC(=O)[C@H](CCCN)NC(=O)[C@H](CCCCNC(=N)N)NC(=O)[C@H](CC(C)C)NC(=O)CNC(C)=O)C(=O)N[C@@H](CCCN)C(=O)N[C@@H](CCCCNC(=N)N)C(N)=O`: “biofilm formation inhibition” no more than 61.9% (crystal violet staining; ATCC 25922; 4 × MIC, 24 h).
`CC(=NNC(=N)N)c1nnn(-c2ccc(C#CC3(O)CCCCC3)cc2)c1C` gave a selectivity index of 2.19 (WI-38, JW55031 tolC mutant; reference: WI-38 IC50 over MIC).
